Assay results collected from several papers.
Lines come from different studies, so protocols differ. ± gives the spread as reported.
Route: oral

SMILES | test system | setting | quantity | value
C[C@@H](Nc1cc(F)cc(F)c1)c1cc(C(=O)N(C)C)cc2c(=O)cc(N3CCOCC3)oc12 | human, plasma | 360 mg, day 1 single dose | t1/2 geometric mean | 4.63 h
Nc1ccc(S(=O)(=O)Nc2ccccn2)cc1 | human | 1000 mg, day 1, sulfasalazine alone | t1/2 | 12.2 h
Cc1cn([C@H]2C[C@H](N=[N+]=[N-])[C@@H](CO)O2)c(=O)[nH]c1=O | human, both sexes, PBMCs | 600 mg, single dose | t1/2 | 2.49 ± 0.638 h
CCCOc1ccc(NC(=O)CN2CCN(C)CC2)cc1-c1nc(CC)c(CC)c(=O)[nH]1 | human, fasting, plasma | 10 mg, together with: placebo | t1/2 | 9.72 ± 2.17 h
O=C(/C=C/CN1CCCCC1)Nc1cc2c(Nc3ccc(F)c(Cl)c3)ncnc2cc1O | human, plasma | 30 mg | t1/2 | 63.5 h
N#CCC1CCN(c2nc(Nc3ccc(N4CCC(O)CC4)cc3)c3c(=O)[nH]ncc3n2)CC1 | human, plasma | 20 mg once daily, day 1 | t1/2 | 6.62 h
C[C@]12C=CC(=O)C=C1CC[C@@H]1[C@@H]2[C@@H](O)C[C@@]2(C)[C@H]1CC[C@]2(O)C(=O)CO | human | dose not given | t1/2 | 2.27 h
NC(=S)NN=Cc1ncccc1N | human, plasma | geometric mean, total | t1/2 | 1.5 h
CC[C@H](Nc1ncnc2[nH]cnc12)c1oc2ccccc2c(=O)c1-c1cccc(F)c1 | human patients, plasma | 600 mg twice daily, together with: romidepsin 12 mg/m2 | t1/2 | 3.8 ± 1.29 h
Cl.[2H]C([2H])([2H])CC(=O)c1cnc(NC(=O)C2CC2)cc1Nc1cccc(-c2ncn(C([2H])([2H])[2H])n2)c1OC | human, fed, plasma | 25 mg, single dose, liquid formulation | t1/2 | 7.91 h

Excerpt of the above:
SMILES | test system | setting | quantity | value
N#CCC1CCN(c2nc(Nc3ccc(N4CCC(O)CC4)cc3)c3c(=O)[nH]ncc3n2)CC1 | human, plasma | 20 mg once daily, day 1 | t1/2 | 6.62 h
